Measurements collected from several papers.
Each numbered part is a random draw from the data of one study; scales do not carry over between parts.

Study 1
Target: Histone acetyltransferase KAT6A, winged helix 1, GST fusion (KAT6A, Homo sapiens, UniProt Q92794, residues 1-85)
Method: protein binding microarray
Form: double-stranded DNA, one strand shown
Sample: in vitro
Concentration: not given
Notes: 8-mer, flanks averaged, mean of 2 arrays, mostly near background
Relative to: not given
Reading: higher = stronger binding
Quantity: E-score
Residues (chain): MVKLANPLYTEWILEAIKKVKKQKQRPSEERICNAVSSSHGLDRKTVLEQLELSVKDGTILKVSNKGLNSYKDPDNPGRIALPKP
GGCATAGA: 0.0461
CAGCCACG: -0.00949
AGCATCAG: -0.0949
AAACTGCT: 0.0449
AATATCTC: -0.08
ATTTGTGA: -0.123
AGGCACGG: 0.202
ACTTGGAT: -0.112
GACGGGTA: 0.329
AGTTTAGG: -0.261
GACCGCTC: 0.252
AGTGTGTG: -0.188
AAAGAACG: 0.0336
ACCAATCC: 0.043
AGGGTGAG: -0.0861
GTGATTGA: 0.00884
CGTCTTAA: 0.0338
CCACCTTA: -0.216
CCTCTATC: -0.278
ATTTCTGC: 0.0318
CTCTACAG: -0.148
ATTCACAC: -0.214

Study 2
Target: Prothrombin, mature alpha-thrombin (F2, Homo sapiens, UniProt P00734)
Method: aptamer microarray, sandwich
Form: DNA with 2'F-ANA
Sample: in vitro
Concentration: 200 nM
Notes: whole 15-mer aptamer, many near background
With: Cy3 exosite-II aptamer, 400 nM
Reading: higher = stronger binding
Quantity: mean fluorescence intensity
Sequence: GGTTGGTGTGGTTGG
2'F-ANA at 2 3 4 5 7 8 10 15: 55.1 a.u.
2'F-ANA at 1 2 5 6 7 9 10 11 14 15: 51.1 a.u.
2'F-ANA at 3 4 6 7 14 15: 286 a.u.
2'F-ANA at 5 6 7 8 10 12: 49.7 a.u.
2'F-ANA at 1 2 3 4 6 7 10 11 12: 73.3 a.u.
2'F-ANA at 4 5 6 11 14 15: 76.2 a.u.
2'F-ANA at 6 9 14 15: 161 a.u.
2'F-ANA at 4 9 10 12: 133 a.u.
2'F-ANA at 1 4 6 9 15: 103 a.u.
2'F-ANA at 1 2 3 4 6 10 12 13 14: 50.4 a.u.
2'F-ANA at 1 4 8 9 10 13 14 15: 46.5 a.u.
2'F-ANA at 1 7 8 9 11: 190 a.u.
2'F-ANA at 1 3 9 12 14: 97.9 a.u.
2'F-ANA at 1 2 7 9 10 11 15: 175 a.u.
2'F-ANA at 2 3 4 7 8 9 10 11 12: 304 a.u.
2'F-ANA at 6 7 8 10 14: 129 a.u.
2'F-ANA at 4 5 7 11 12 13: 77.3 a.u.
2'F-ANA at 2 3 5 8 9 12 15: 257 a.u.
2'F-ANA at 2 5 6 9 12: 168 a.u.
2'F-ANA at 3 5 6 9 15: 109 a.u.
2'F-ANA at 3 4 6 7 8 11 13 14 15: 244 a.u.
2'F-ANA at 1 2 4 5 7 8 9 10 11 13: 62.1 a.u.
2'F-ANA at 1 5 6 9 10 11 12 14: 43.6 a.u.
2'F-ANA at 1 2 3 4 8 9 11: 165 a.u.
2'F-ANA at 3 4 5 6 7 9 14 15: 49.2 a.u.

Study 3
Target: Sal-like protein 4, full length isoform B (SALL4, Homo sapiens, UniProt Q9UJQ4-2, residues 1-616)
Method: universal PBM
Form: double-stranded DNA, one strand shown
Sample: in vitro
Concentration: not given
Notes: 8-mer, flanks averaged, mean of replicates
Reading: higher = stronger binding
Quantity: E-score
CCCGCAGA: -0.182
GGACGCAC: -0.26
GCGAAGAA: -0.0192
GCTTCCAA: -0.0534
AACTACCG: -0.124
CTCCTGTA: -0.0827
AATCCTAA: 0.0888
CAGACCTG: -0.189
AGCTGCAC: -0.131
GAAATAAA: 0.27
CCGTTAAG: -0.149
GCAACCAC: -0.267
CAACGTCC: -0.242
ATAAGTAG: 0.164
AGACTTAG: -0.087
CAATGCAA: 0.034
TAGTCTCA: 0.162
CGATAGCG: -0.0827
AAGAATTA: 0.313
CTACCATC: -0.123
AGTATGTA: 0.206
AACGTCTC: -0.0538
ACCTCTCG: -0.0637
ATGGGGCA: -0.178
ATGATTGG: 0.155

Study 4
Target: RING finger protein unkempt homolog, zinc fingers 1-6, SBP tag (UNK, Homo sapiens, UniProt Q9C0B0, residues 30-357)
Chain of UniProt Q9C0B0 (30-357, looked up): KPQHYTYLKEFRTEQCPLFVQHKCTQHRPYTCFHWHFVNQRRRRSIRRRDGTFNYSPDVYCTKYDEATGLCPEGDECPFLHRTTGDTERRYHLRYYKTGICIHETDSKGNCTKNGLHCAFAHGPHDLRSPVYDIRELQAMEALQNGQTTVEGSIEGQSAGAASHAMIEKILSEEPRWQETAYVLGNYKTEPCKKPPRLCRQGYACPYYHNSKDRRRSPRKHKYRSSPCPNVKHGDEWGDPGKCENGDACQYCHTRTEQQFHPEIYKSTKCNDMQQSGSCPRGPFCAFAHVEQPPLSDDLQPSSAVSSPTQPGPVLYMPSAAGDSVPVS
Method: RNA Bind-n-Seq
Form: RNA
Sample: in vitro
Concentration: 100 nM
Notes: RNA with constant flanks, vertebrate orthologous sites, ends assumed
Relative to: input RNA pool
Reading: higher = stronger binding
Quantity: bound/input enrichment
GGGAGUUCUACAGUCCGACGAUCGUGGGGAUCGGGGUGGGGUGGGAAGAAGAUGUAUGGACGUUACUGGCAUUUUUAAGUGUUAAGAGUUUUUUGUGUUGUUGUUGUUUUUUUUCCUCUCGUUUUGUUCUUCCCCUUUAAUUACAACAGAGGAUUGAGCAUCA: 1.14 ratio
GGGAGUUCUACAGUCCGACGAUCAGCAACGCAAGGAUUCAGGACUGGUUACACCAACCUGCCAAGUAGAUCUGGAAUUAAUAACAACAGACUUGGGCCACCAAGACCGUGAUGUGCUCUGACUUGAUUCUGCUAAGGAACCUUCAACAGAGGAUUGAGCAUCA: 0.147 ratio
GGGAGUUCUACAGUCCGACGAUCCAGCCGAUUCACUCAUUGGGAGAGCUGCACAUAUAGCUGUUCUUGAUUCGGAAAUAUUUUUAGAGAAAUUCUUCCUGGUUGCCGCCCUCAAAUAUUUCCAGUAGGAUAAAAACAUUAUUACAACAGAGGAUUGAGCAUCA: 1.1 ratio
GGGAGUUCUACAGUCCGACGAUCAGAAAAUUUUAACCAAGAAUCUGAAGGUAGAAAUACAGGACCCUGGUUAUCUUCCUCACUUAGAAAUAGAUGCACACCUUUGUUCUCUAGAAGGAGGCGAGAGGGACGAGAUGAAUCUUCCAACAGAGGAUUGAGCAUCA: 0.719 ratio
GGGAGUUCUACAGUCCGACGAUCGGUUUUUAAAGCUAUUCUUUCACCUUUCCAGUAAAUAAUGGACGAUCUUUUUUAAAAAAAUGUUGUUUUAAUAAUGUGGGUAGACUAUAAAUGUAUUUGUUGAAUUUAUUCAUUUUUUAACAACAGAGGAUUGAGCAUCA: 0.532 ratio
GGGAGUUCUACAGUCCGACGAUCAUCCUUUCGUGCUGUCCCCAGCCAGGGCCGAGGACCAGACAUUUCACCGAGGACCUGCAUUUCAAACAAUUUUUUAAAUUGUUGUACAAGAAGAGAUGUGCCAGAAACAGCAUCUCCAAGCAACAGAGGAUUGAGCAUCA: 0.3 ratio
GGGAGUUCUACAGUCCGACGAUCAGUAGUUUUAAGCUUGUUUGCACAGUUCUUUUUUUCCAUUGGAAAUGGAAUUCAUUGCCUUAGGUCUUUUAAAAUAGUGUAUUAUUGUUGGGGCUGGCUCUAUGCUUGAAAACAAGUUUACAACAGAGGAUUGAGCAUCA: 2.9 ratio
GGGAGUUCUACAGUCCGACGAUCUUGUGGGGGUGGGGGUGGGGAAGGGAAGAUGUAUGGAUGUUACUGGCAUUUUUAAGUGUUUAGAAUCUUUUUUUUUCCUCCUGUUUUUCUGUUUUGCAUUUUCUCUUUAAUCAGAUGCACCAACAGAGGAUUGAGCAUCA: 2.98 ratio
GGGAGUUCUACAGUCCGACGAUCAUCUCUCACUUUAUAUAUCCAAAAAUGGCUUUUAAUUUUUCAAGACUUGCUGGUUUUAAUUAGCUCUGCCCUCAUAAGGUGAUGCUACAGUCCACCACAGAGCAGUGGUGUGAAUGGGUUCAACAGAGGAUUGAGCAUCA: 0.527 ratio
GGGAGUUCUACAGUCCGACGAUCAACAGUUUAGAUAUUCUUUUAAUUUUUUCUUUUCCCUUAAUCCUUUCUUAUUUUUAAAAAUAGUUCUUUUGUAAUGUGGUGUUCAAAACGAAAUUGAAAACAGGCACCUCUCCUUAAAACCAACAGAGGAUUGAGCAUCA: 9.34 ratio
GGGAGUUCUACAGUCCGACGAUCAAAUUUAUUUCAUGCCCUGGACUCCCUACCGCACUGAUACUUUGAUAGAGUAUGCUUCUUUAGAAGAUUUCCAAAACAGCCGCCAAACAACAACAUACAAACUUCCAAAUCGAGUAGAUGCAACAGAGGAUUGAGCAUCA: 1.39 ratio

A few entries again (study 2):
2'F-ANA at 6 9 14 15: 161 a.u.
2'F-ANA at 4 9 10 12: 133 a.u.
2'F-ANA at 1 4 6 9 15: 103 a.u.
2'F-ANA at 1 2 3 4 6 10 12 13 14: 50.4 a.u.
2'F-ANA at 1 4 8 9 10 13 14 15: 46.5 a.u.
2'F-ANA at 1 7 8 9 11: 190 a.u.
2'F-ANA at 1 3 9 12 14: 97.9 a.u.
2'F-ANA at 1 2 7 9 10 11 15: 175 a.u.
2'F-ANA at 2 3 4 7 8 9 10 11 12: 304 a.u.
2'F-ANA at 6 7 8 10 14: 129 a.u.
